Measurements pooled from the literature.
Compare with care: the assays were run in different laboratories. “And” joins repeats or separate records; there may be more than shown. ± gives the spread as reported.

| SMILES | cell line | test | test system | conditions | scale | measurement | value |
| --- | --- | --- | --- | --- | --- | --- | --- |
| CC(=O)Oc1ccccc1C(=O)[Se]CC(=O)Nc1cccc(C(F)(F)F)c1 | NCI60 CNS subpanel | NCI60 five-dose screen |  |  |  | CC50 | 57.3 µM |
| CC(C)C[C@H](NC(=O)[C@H](CC(=O)O)NC(=O)CNC(=O)[C@@H](N)CCCNC(=N)N)C(=O)N[C@@H](C)C(=O)N[C@H](C(=O)N[C@@H](CC(C)C)C(=O)N[C@@H](CCCNC(=N)N)C(=O)N[C@@H](CCC(N)=O)C(=O)N[C@@H](CC(C)C)C(=O)N[C@@H](C)C(=O)N[C@@H](CCC(N)=O)C(=O)N[C@@H](CCC(=O)O)C(=O)N[C@@H](CC(=O)O)C(=O)NCC(=O)N[C@H](C(=O)N[C@H](C(=O)NCC(=O)N[C@H](C(=O)N[C@@H](CCCNC(=N)N)C(=O)NCCOCCOCCOCCOCCOCCOCCOCCOCCOCCOCCOCCOCCC(=O)N[C@@H](CS)C(N)=O)C(C)C)C(C)C)C(C)C)[C@@H](C)O | HCC2279 lung adenocarcinoma | cell binding, phage binding, measured: output/input phage |  | 10 min, 37 °C | reference: control phage | selectivity ratio | 3.1 ± 2 |
| CCc1nc2ccc(C(=O)NCCCn3ccnc3)cn2c1N(C)Cc1ccc(N(C)C)cc1 | bEnd.5 monolayer |  | in vitro blood-brain barrier model | IC50 and 1.5 x IC50, 48 h | reference: untreated | transendothelial electrical resistance | increased |
| O=C(O)c1ccc(-c2nc(-c3ccccc3Cl)c3sccn23)cc1 | HEL | flow cytometry |  | 0.01 mM |  | CD41-positive cells | 63.7% |
| COc1ccccc1-c1ccncc1C(=O)Nc1nnc(OCc2ccc(Cl)cc2)s1 | DLD-1 parental (BRCA2 WT) |  |  | 1 µM, average of 3 runs | reference: untreated | colony survival | 96.5% |
| O=C(C[Se]C(=O)c1cc2ccccc2s1)Nc1cccc(C(F)(F)F)c1 | NCI60 breast subpanel | NCI60 five-dose screen |  |  |  | CC50 | 8.11 µM |
| CC(C)(C)C(=O)OCOP(=O)(OCOC(=O)C(C)(C)C)C1CCCN(O)C1=O (stereo not drawn) | MDA-MB-231 |  |  |  |  | Log10GI50 | -6.4 log M |
| CC[C@H](C)[C@H](NC(=O)[C@@H](NC(=O)[C@@H]1CCCN1C(=O)[C@@H](NC(=O)[C@@H](NC(=O)[C@H](Cc1c[nH]cn1)NC(=O)[C@@H]1CCCN1C(=O)[C@H](CC(C)C)NC(=O)[C@@H](NC(=O)[C@H](Cc1c[nH]cn1)NC(=O)[C@H](CCCCN)NC(=O)[C@H](C)NC(=O)[C@H](CO)NC(=O)CNC(=O)[C@H](CC(C)C)NC(=O)[C@@H](NC(=O)CNC(=O)[C@H](Cc1ccccc1)NC(=O)[C@H](CC(C)C)NC(=O)CNC(=O)[C@@H](N)Cc1ccc(O)cc1)C(C)C)C(C)C)C(C)C)C(C)C)C(C)C)C(=O)N[C@@H](C)C(=O)N[C@@H](CCC(=O)O)C(=O)N[C@@H](Cc1c[nH]cn1)C(=O)N[C@@H](CC(C)C)C(N)=O | LO2 | MTT |  | 30 µg/mL, 24 h |  | viability | 75.8 ± 2.72% |
| CC(C)C[C@H](NC(=O)[C@H](CCC(=O)O)NC(=O)[C@@H](N)Cc1ccccc1)C(=O)N[C@@H](CCC(=O)O)C(=O)N[C@@H](CCCNC(=N)N)C(=O)N[C@@H](CCCNC(=N)N)C(=O)N[C@@H](Cc1ccccc1)C(=O)N[C@@H](CCCCN)C(=O)N[C@@H](CCC(N)=O)C(=O)N[C@@H](CCC(N)=O)C(=O)O | HCT-116 | CCK-8 |  | 2.5 µM | reference: vehicle | viability | 96.6% and 100% and 102% |

Excerpt of the above:
| SMILES | cell line | test | test system | conditions | scale | measurement | value |
| --- | --- | --- | --- | --- | --- | --- | --- |
| CC(=O)Oc1ccccc1C(=O)[Se]CC(=O)Nc1cccc(C(F)(F)F)c1 | NCI60 CNS subpanel | NCI60 five-dose screen |  |  |  | CC50 | 57.3 µM |
